Results collected from several papers.
Parts stem from different laboratories: compare values within a part only.

Series 1
Target: Runt-related transcription factor 1, full length (RUNX1, Homo sapiens, UniProt Q01196-8, residues 1-480)
Method: protein-binding microarray
Molecule type: hairpin DNA
Medium: in vitro
Concentration: not given
Notes: whole hairpin DNA, median over replicate spots
Reference: not given
Direction: higher = stronger binding
With `GAGGCCCAACCGCACGAGCCTCCTGGCTCGTGCGGTTGGGCCTCACACTC` the median fluorescence was 3650 a.u.
For `CTCAGTTCTGTGGGCAGGACTCCTGTCCTGCCCACAGAACTGAGACACTC`, the median fluorescence was 2080 a.u.
The median fluorescence of `GAGGCCCCACCGCAACAGCCTCCTGGCTGTTGCGGTGGGGCCTCACACTC` is reported as 3460 a.u.
With `GAGGCCTGTCGCGGTTGCCCTCCTGGGCAACCGCGACAGGCCTCACACTC (5mC at 18)` the median fluorescence was 2560 a.u.
With `GAGGCCTGTTCTGGTTGGCCTCCTGGCCAACCAGAACAGGCCTCACACTC` the median fluorescence was 1750 a.u.
The median fluorescence of `GAGGCCTCTCGCGGTTGGCCTCCTGGCCAACCGCGAGAGGCCTCACACTC` is reported as 2440 a.u.
`GAGGCCTGTTGTGGTTAGCCTCCTGGCTAACCACAACAGGCCTCACACTC` has a median fluorescence of 5780 a.u.
With `GAGGCCTGATGTGGTTGGCCTCCTGGCCAACCACATCAGGCCTCACACTC` the median fluorescence was 2390 a.u.
`GAGGCCCAACCCGAACAGCCTCCTGGCTGTTCGGGTTGGGCCTCACACTC (5mC at 32)` gave a median fluorescence of 1940 a.u.
For `GAGGCCTGATGCGGTTGGCCTCCTGGCCAACCGCATCAGGCCTCACACTC`, the median fluorescence was 3330 a.u.
For `GAGGCCTGTTGTGGCGGGCCTCCTGGCCCGCCACAACAGGCCTCACACTC (5mC at 29)`, the median fluorescence was 1940 a.u.
With `CTCAGTTCTGCGGGCTGGACTCCTGTCCAGCCCGCAGAACTGAGACACTC (5mC at 11 33)` the median fluorescence was 1790 a.u.
For `GAGGCCTGTTGCGGTTTGCCTCCTGGCAAACCGCAACAGGCCTCACACTC`, the median fluorescence was 9480 a.u.
`CTCAGTTCTGTGGGCCGGACTCCTGTCCGGCCCACAGAACTGAGACACTC` gave a median fluorescence of 1900 a.u.
With `GAGGCCTGTCGCGGTTGGCCTCCTGGCCAACCGCGACAGGCCTCACACTC (5mC at 12 32 34)` the median fluorescence was 1810 a.u.
The median fluorescence of `GAGGCCTGTTGCGGTTGGCCTCCTGGCCAACCGCAACAGGCCTCACACTC (5mC at 12)` is reported as 3300 a.u.
`CTCAGTTCTCTGGGCTGGACTCCTGTCCAGCCCAGAGAACTGAGACACTC` gave a median fluorescence of 1580 a.u.

Series 2
Target: Fragile X messenger ribonucleoprotein 1, C-terminal low-complexity region (Fmr1, Mus musculus, UniProt P35922)
Method: RNA Bind-n-Seq
Molecule type: RNA
Medium: in vitro
Concentration: 200 nM
Notes: whole 134-nt RNA, ends assumed
Added: 150 mM LiCl
Reference: input library
Direction: higher = stronger binding
Each molecule: 7-deaza-guanosine replaces G
`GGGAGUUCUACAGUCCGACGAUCUUAUCUGUGGACUUCACCCAAAAGGAGUGGCAGCUACUGGAUCCCUCUCAGAAGAAUUUAUACAAGGAUGUGAUGUUGGAGAACUAUAGCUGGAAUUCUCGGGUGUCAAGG` gave a log2 enrichment of -1.4.
`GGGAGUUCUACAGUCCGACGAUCAGUCCUGUGCUACACAUCGUAUGUACCGAAUCGGGGUGGGGAAAAAAAGGGGAGGGGAAAGUAUUAUGUUACGCCGUUCGGAUCUGCACUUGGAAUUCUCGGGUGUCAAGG` has a log2 enrichment of -0.00581.
For `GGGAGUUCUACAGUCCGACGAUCAGUUACUCAGUUCAUUUUGGAUAACUACAUUGAAAGAGGAAAAGGAUCUGCUUGCAGAAUAGUUUGUACUCAGCCAAGAAGAAUUAGUGCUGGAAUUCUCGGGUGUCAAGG`, the log2 enrichment was -3.82.
`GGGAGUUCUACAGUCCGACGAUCUUCACCAGUUUCACUGUGAGCCUCAACGAGCUGGAGACAGGCAUGGAGAAGACCCUGCCACCCACGGACUGCCGCCUGCGCCCUGACAUCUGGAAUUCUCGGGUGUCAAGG` has a log2 enrichment of 1.31.
With `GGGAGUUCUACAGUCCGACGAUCCCUGUGCUACACAUCGUAUGUACCGAAUCGGGAAAAAAGGGGAAAAAAGGGGAAAAAAGGAAAGUAUUAUGUUACGCCGUUCGGAUCUGCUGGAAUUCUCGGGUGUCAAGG` the log2 enrichment was 0.355.
The log2 enrichment of `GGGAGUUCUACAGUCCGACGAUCUCCUCAAGUCCUGUGCUACACAUCGUAUGUACCGAAUCGGGGUGGGUGGUGGAAAGUAUUAUGUUACGCCGUUCGGAUCUGCACUUCCAGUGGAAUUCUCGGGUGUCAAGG` is reported as -0.193.
For `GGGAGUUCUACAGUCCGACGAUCUGGCCCUGGUGGCAUGCGGGGAGGAAGAGGUGGCCUCAUGGAUCGUGGUGGUCCCGGUGGAAUGUACAGAGGUGGCCGUGGUGGAGACAGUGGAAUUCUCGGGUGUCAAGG`, the log2 enrichment was -0.625.
With `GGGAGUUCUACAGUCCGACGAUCGCAGGAAGUAAAAACAAAUGGAAAUGCUUCGGAUAGUGGCAUGGGUGGGGGUUGCUAAGGAAAGGGUGGGAUGGGAGUGGGUAAAGAGUUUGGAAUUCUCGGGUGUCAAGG` the log2 enrichment was 1.35.
The log2 enrichment of `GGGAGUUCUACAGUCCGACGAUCCAAGUCCUGUGCUACACAUCGUAUGUACCGAAUCGGGCCCCGGGCCCCGGCCCCGGAAAGUAUUAUGUUACGCCGUUCGGAUCUGCACUUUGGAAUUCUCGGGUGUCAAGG` is reported as -1.99.
For `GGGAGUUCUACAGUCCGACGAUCAAGUCCUGUGCUACACAUCGUAUGUACCGAAUCGGUUUUUGGAAAGGUUUUUUUGGAAAGUAUUAUGUUACGCCGUUCGGAUCUGCACUUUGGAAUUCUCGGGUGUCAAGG`, the log2 enrichment was -2.43.
`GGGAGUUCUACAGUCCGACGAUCUAAGGCCAGUAAAAUUUUAGUACCUGGAGGUUUGACUCUAAUUUUUGCACUGAUGGUGCCAAAGGGCCCUGAGUCAAAAGGAUAGCCAAGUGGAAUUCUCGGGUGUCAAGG` gave a log2 enrichment of -3.21.

Series 3
Target: Sal-like protein 4, full length isoform A (SALL4, Homo sapiens, UniProt Q9UJQ4, residues 1-1053)
Chain of UniProt Q9UJQ4 (whole entry, looked up): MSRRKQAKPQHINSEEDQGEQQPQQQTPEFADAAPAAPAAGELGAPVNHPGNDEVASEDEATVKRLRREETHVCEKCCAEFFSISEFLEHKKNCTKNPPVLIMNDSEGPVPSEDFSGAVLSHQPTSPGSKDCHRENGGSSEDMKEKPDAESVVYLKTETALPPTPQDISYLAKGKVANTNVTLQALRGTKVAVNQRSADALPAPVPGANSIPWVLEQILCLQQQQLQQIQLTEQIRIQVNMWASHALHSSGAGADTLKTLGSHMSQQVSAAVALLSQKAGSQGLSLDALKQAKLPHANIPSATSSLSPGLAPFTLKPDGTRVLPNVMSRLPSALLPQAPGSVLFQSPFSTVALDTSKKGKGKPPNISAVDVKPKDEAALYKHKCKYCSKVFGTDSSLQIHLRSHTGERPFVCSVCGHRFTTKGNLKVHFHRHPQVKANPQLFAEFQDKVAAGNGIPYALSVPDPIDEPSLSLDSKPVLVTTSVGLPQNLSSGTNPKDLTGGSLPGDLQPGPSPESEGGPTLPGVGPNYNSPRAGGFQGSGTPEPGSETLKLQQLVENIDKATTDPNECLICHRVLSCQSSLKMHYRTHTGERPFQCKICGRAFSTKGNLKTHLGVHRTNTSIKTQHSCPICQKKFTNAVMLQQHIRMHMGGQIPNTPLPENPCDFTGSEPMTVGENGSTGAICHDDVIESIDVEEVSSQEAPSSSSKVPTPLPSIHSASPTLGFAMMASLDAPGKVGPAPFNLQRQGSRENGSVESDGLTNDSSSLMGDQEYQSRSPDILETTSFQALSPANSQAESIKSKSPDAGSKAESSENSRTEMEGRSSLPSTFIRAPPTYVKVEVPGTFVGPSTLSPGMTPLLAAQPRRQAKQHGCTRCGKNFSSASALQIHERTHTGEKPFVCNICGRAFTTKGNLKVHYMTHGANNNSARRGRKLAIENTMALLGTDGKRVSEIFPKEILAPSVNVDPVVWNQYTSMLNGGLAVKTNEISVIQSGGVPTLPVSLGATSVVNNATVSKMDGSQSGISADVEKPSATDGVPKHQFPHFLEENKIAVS
Method: universal PBM
Molecule type: double-stranded DNA, one strand shown
Medium: in vitro
Concentration: 600 nM
Notes: 8-mer, flanks averaged, mean of replicates
Direction: higher = stronger binding
The E-score of `GGCTGGCA` is reported as -0.25.
`CGGAGACG` has an E-score of -0.156.
The E-score of `GCTACCAC` is reported as -0.151.
With `TGGAACCA` the E-score was -0.082.
The E-score of `TCGCTCAA` is reported as -0.083.
`GAGTGCGA` has an E-score of -0.116.
The E-score of `GGCGACAC` is reported as -0.307.
`CTTTTCGA` has an E-score of 0.104.
`AGCACCCC` gave an E-score of -0.26.
For `AGTAAACC`, the E-score was -0.0343.
`GAGGTAAA` gave an E-score of 0.0956.
For `CCTGCTGC`, the E-score was -0.201.
`GCGGAGAC` has an E-score of -0.12.
`AGTGGCGA` has an E-score of -0.0302.
`ACTAACAG` has an E-score of 0.162.
`TGCATCAA` has an E-score of 0.168.
`ATGACCAA` has an E-score of 0.186.
`AGAGTAGC` gave an E-score of -0.196.
For `TACTCTAA`, the E-score was 0.133.
For `ATGAAGTG`, the E-score was 0.182.

Series 4
Target: RNA binding protein fox-1 homolog 2, RRM domain, GST-SBP tag (RBFOX2, Homo sapiens, UniProt O43251-10, residues 100-194)
Method: RNA Bind-n-Seq
Molecule type: RNA
Medium: in vitro
Concentration: 365 nM
Notes: natural RNA segment, single round, ends assumed
Reference: no-protein control
Direction: higher = stronger binding
Residues (chain): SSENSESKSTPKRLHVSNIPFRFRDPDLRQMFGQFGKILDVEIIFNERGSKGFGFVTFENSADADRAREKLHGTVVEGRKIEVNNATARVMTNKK
`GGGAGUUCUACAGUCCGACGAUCUGAAGAUUUUGAGGUUUUUAAUUUAAAGGCUGUGUACAGUUAUACUUUUUUAUACACCUGUUCAUUUCUACUUAAAUUAUGGCACAGAUUGAUGCGCACCAGUCUUGAGGUGGAAUUCUCGGGUGCCAA` — result for “RBNS enrichment (R)”: 0.724.
Under “RBNS enrichment (R)”, `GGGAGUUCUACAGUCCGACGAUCAACAAAAAAAAAUGAAAAAAAAAAAGAAAAAUGAAAAAAGUGUGUUGUUAUAGUAACAUAAAUAAUACACAGAAUUUUGUUACACUAUCAGUUUGGGGGGUGAGCUUUGAUGGAAUUCUCGGGUGCCAA` is recorded as 1.23.
For `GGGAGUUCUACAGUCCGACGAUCUUUUGUUGUAAGGAGAAAACCAGCUCAGACUUUUGUCCCUGUAGGUGAUGGUAGUGGUCAGAAAUGGCUUUUGCUUUGGUAAUAAGUGAAUUUUAUUCCCCAAGAGUCUCUGGAAUUCUCGGGUGCCAA`, “RBNS enrichment (R)” read 0.403.
Under “RBNS enrichment (R)”, `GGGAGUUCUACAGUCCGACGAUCAAUAUGGCUGGAUAAUAAACACUCCUGGGUAGAGGAGGCCAGGAGCCUCACUGUCCCAAUUCCCAAAUUUUUCUUACAGAGAUUCAGGGCCUUCAAGAGUCUUCUUAAUGUGGAAUUCUCGGGUGCCAA` is recorded as 0.374.
Under “RBNS enrichment (R)”, `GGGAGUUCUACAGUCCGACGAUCGUUAAAUAGCCCUUGAUGACUUUUCAUGUGGCAUGAGAGGGAUAUGCUUAUAAAGCUUAAUUCUGAUAUUAUCCUCUUACUACCUACAGUAUGUUUUGCAAAAAUCAGUCUGGAAUUCUCGGGUGCCAA` is recorded as 0.423.
`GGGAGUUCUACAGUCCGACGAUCGAGCUACUCUGGUUGGUAAUACUCUGUGCACACAUCAUUGUAGCCACACAUCAUUGCUGGGAGAAUUAAGCAUUAUCCUGAAGACUCUGCCAGGAGAGGAUAAUUGGAAGUGGAAUUCUCGGGUGCCAA` — result for “RBNS enrichment (R)”: 0.511.
`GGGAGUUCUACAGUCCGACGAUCGGCCCUGGAAGGUCCUGGCACACGCAAUUCUUGGGUCUCAUUCCAUCCAGGUUCCAGAGAGAACAUUAGAUCUUAGCUCUUGACAAAACGGAUGGCAGAUACUGGCCUUUUGGAAUUCUCGGGUGCCAA` — result for “RBNS enrichment (R)”: 0.182.
`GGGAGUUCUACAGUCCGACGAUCACAAUAAAGCACAGGCCUUACCGCGGCGUCACCCUCUCCCACUCCUUUGUUCUGGGUCCUUUCGGGAGGGCUGAUGGGCAGCACAGGAGGCCCGUCCUCGGGGGGCUGCGUGGAAUUCUCGGGUGCCAA` — result for “RBNS enrichment (R)”: 0.338.
Under “RBNS enrichment (R)”, `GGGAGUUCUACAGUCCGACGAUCAUAAGGCACACUGUAGUGCUUAAUAUGUGUAAGGACUUCCUCUUUAAAUUUGGUACCAGUAACUUAGUGACACAUAAUGACAACCAAAAUAUUUGAAAGCACUUAAGCACUGGAAUUCUCGGGUGCCAA` is recorded as 0.424.
Under “RBNS enrichment (R)”, `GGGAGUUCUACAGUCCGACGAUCGCUGGGUUGGAGGUGGGUAUCAAGUGAUUAUUUCCUAUCAAGACAUCUUUAAAUUAUAGAGCUCAGUAAUCAAUUUAAAGACAGUGUUAAGCUACUCACAGUGGCAAAUGUGGAAUUCUCGGGUGCCAA` is recorded as 0.442.
Under “RBNS enrichment (R)”, `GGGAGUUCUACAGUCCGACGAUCCAUUGCUCUCUCCUAAGCCCCAACCCCACUCCACUCCUGUGGCCAGGGGUCCAAACAGAAAAUAACCGGAGAAGACAAGGAGGUCAAAGGAUCAGGGAACUAAGCAUUAUUGGAAUUCUCGGGUGCCAA` is recorded as 0.944.
For `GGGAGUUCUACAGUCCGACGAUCGCCUCCAUCACCACAACCACACCGCUUCGCUCUGCCAUCCACCCACCGCAGCAGCAUCUUCAAGAAUAAAGCAAUAUAGUUUACUACAUUUUUUUUUAAAAUUGAAGGUCUGGAAUUCUCGGGUGCCAA`, “RBNS enrichment (R)” read 0.849.
